Results of several laboratories.
Parts stem from different laboratories: compare values within a part only. Substitutions count along the parent as printed.

Series 1
Target: ABI1, truncated, D143A, DHFR fusion (Arabidopsis thaliana)
Technique: DHFR PCA, deep sequencing
Sample: yeast
Notes: methotrexate growth selection, single substitutions
With: (+)-ABA 58 µM
Baseline: wild-type fitted maximum
Reading: higher = stronger binding
Parent: PYL1, truncated, DHFR fusion (Arabidopsis thaliana); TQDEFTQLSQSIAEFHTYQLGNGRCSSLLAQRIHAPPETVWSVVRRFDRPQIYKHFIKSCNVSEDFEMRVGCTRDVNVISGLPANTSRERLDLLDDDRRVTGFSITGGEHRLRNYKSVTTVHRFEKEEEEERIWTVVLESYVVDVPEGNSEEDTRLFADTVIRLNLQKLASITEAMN
Under “relative binding score”, `M68I` is recorded as 86%.
`V44W`: “relative binding score” -0.884%.
`Q10C`: “relative binding score” 84.6%.
For `V40F`, “relative binding score” read -12.5%.
For `S104R`, “relative binding score” read 44%.
For `R98T`, “relative binding score” read 68.3%.
`C72E` — result for “relative binding score”: 76.6%.
Under “relative binding score”, `A13I` is recorded as 77.4%.
`D95G` — result for “relative binding score”: 4.86%.
For `D48C`, “relative binding score” read 8.83%.
`D3Y`: “relative binding score” 82.1%.

Series 2
Target: CCNB2, cyclin fold, Cln2 fusion (human)
Technique: yeast growth competition, sequencing
Sample: yeast
Notes: weak parent motif
Baseline: not given
Reading: higher = stronger binding
Parent: CDC25A docking peptide (human); PPHRRRLLFACSP; partner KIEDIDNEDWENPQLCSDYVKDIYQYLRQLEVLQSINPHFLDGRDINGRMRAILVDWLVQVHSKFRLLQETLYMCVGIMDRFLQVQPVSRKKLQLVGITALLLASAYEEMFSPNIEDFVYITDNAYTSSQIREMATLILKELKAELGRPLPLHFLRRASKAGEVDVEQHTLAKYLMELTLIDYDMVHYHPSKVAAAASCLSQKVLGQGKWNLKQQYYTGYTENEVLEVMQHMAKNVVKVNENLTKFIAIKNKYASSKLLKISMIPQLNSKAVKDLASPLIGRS
Under “normalised enrichment score”, `H3M` is recorded as 0.538.
`C11G` — result for “normalised enrichment score”: 0.511.
For `C11H`, “normalised enrichment score” read 0.805.
Under “normalised enrichment score”, `R4D` is recorded as 0.402.
`C11V`: “normalised enrichment score” 0.0784.
`P2I` — result for “normalised enrichment score”: 0.661.
Under “normalised enrichment score”, `L7E` is recorded as 0.161.
For `R5Y`, “normalised enrichment score” read 0.0487.
For `S12A`, “normalised enrichment score” read 0.5.
Under “normalised enrichment score”, `A10N` is recorded as -0.021.
Under “normalised enrichment score”, `H3Y` is recorded as 0.588.
Under “normalised enrichment score”, `P2F` is recorded as 0.642.
`P2E` — result for “normalised enrichment score”: 0.482.
`R4P`: “normalised enrichment score” -0.162.
Under “normalised enrichment score”, `R5P` is recorded as 0.235.
`P1F`: “normalised enrichment score” 0.333.
`P1A`: “normalised enrichment score” 0.593.
`H3L` — result for “normalised enrichment score”: 0.917.
For `P2S`, “normalised enrichment score” read 0.472.
`R4Q`: “normalised enrichment score” 0.694.
Under “normalised enrichment score”, `S12E` is recorded as 0.622.
`H3D`: “normalised enrichment score” 0.821.
Under “normalised enrichment score”, `P2Q` is recorded as 1.13.
For `R5H`, “normalised enrichment score” read 0.779.
For `H3P`, “normalised enrichment score” read 0.197.

Series 3
Target: Ras GTPase-activating protein-binding protein 1, full length (G3BP1, Homo sapiens, UniProt Q13283)
Chain of UniProt Q13283 (whole entry, looked up): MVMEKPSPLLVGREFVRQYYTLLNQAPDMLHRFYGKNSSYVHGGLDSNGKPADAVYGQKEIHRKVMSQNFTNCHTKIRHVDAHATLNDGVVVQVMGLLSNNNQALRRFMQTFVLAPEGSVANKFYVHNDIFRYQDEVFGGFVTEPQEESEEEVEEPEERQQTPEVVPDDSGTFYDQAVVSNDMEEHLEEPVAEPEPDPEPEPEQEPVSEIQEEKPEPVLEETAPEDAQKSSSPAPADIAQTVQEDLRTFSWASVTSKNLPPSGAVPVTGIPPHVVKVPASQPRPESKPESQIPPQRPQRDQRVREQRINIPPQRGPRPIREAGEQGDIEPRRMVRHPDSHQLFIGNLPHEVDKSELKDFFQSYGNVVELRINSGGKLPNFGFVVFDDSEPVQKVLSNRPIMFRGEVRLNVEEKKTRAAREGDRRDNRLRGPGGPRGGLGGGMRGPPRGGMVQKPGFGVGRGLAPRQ
Technique: RNA Bind-n-Seq
Form: RNA
Sample: in vitro
Tested at: 200 nM
Notes: whole 134-nt RNA, ends assumed
With: 150 mM KCl
Baseline: input library
Reading: higher = stronger binding
Shared flanks, not repeated: GGGAGUUCUACAGUCCGACGAUC … UGGAAUUCUCGGGUGUCAAGG
`UUAGGAAGAGAAGACAAGGUGGCCUCUCAUUAGAAGAAGAGGAAGAGGAGGAUGCCAAUUCAGAAUCUGAGGGAAGCAGUAGUGAGGAGG` has a log2 enrichment of -0.912.
`CACAGACAACAAACACCCACACAGACACAGAGGGAAGGGGUUGGGAUGGGGACAGGGUGCACAGCAGGGCGGGGUAGGACCCCAGCCCCU` has a log2 enrichment of 2.09.
For `GUCCUGUGCUACACAUCGUAUGUACCGAAUCAAAUUUUUAAACCCAAACCCCCCCAAAAAAGUAUUAUGUUACGCCGUUCGGAUCUGCAC`, the log2 enrichment was -0.328.
For `UCCUGUGCUACACAUCGUAUGUACCGAAUCGGGGUUUUUUUGGGGUUUGGGGUUUGGGGAAAGUAUUAUGUUACGCCGUUCGGAUCUGCA`, the log2 enrichment was 0.8.
`UGCUUCUGAGUUGCCCAGGAGACCACUGGCAGAUGUCCCGGCGAAGAGAAGAGACACAUUGUUGGAAGAAGCAGCCCAUGACAGCUCCCC` has a log2 enrichment of 0.221.
With `UGGGAGUUGGAUUUUGUUUAUUUUUUUAGCUCAUUUCCAGGGGUGGGAAUUUUUUUUUAAUAUGUGUCAUGAAUAAAGUUGUUUUUGAAA` the log2 enrichment was -1.06.
`CACAGACAACACGCACCCACACAGACACAGAGGGAAGGGGUCGGGAUGGGGACAGGGUGCACAGCAGGGCGGGGUAGGACCCCAGCCCCU` gave a log2 enrichment of 1.88.
`GCAGGAAGUAAAGACAAAUGGAAAUGCUUCGGAUAGUGGCAGGGGUGGGGGUUGCUAAGGAAAGGGUGGGAUGGGAGUGGGUAAAGAGUU` has a log2 enrichment of 1.03.
`ACCAUGCAGGUGGGCAUCUUUGGGGAGUGGGGCAAGGGGGGGAUAGGGAGGGGGGUAACACUUUGGGAACAGGUGGUCCCAGGUCGUUUC` gave a log2 enrichment of 1.49.

Series 4
Target: Interferon regulatory factor 5, full length, phosphomimetic (IRF5, Homo sapiens, UniProt Q13568-2, residues 1-514, S451D/S453D/S456D/S462D)
Technique: protein-binding microarray
Form: double-stranded DNA, one strand shown
Sample: in vitro
Tested at: 940 nM top
Notes: 60-bp whole probe
With: salmon DNA 0.4 mg/ml
Baseline: random background probes
Reading: higher = stronger binding
Shared flanks, not repeated: GCCTAGCAC … GTCTTGATTCGCTTGACGCTGCTG
For `GACGGTTCCCTTTTCTTGACGTGCTAG`, “fitted relative affinity” read 1.02 z-score.
`AGATTTATCAAATGTGGGATTGTGCTA`: “fitted relative affinity” -0.735 z-score.
`GAGACTCTAATATTGAGACTGTGCTAG`: “fitted relative affinity” 0.586 z-score.
Under “fitted relative affinity”, `GACGGTCTCGGTCTCGAGACGTGCTAG` is recorded as 4.14 z-score.
`TTAGATTTCAGTGCCGATTAGTGCTAG` — result for “fitted relative affinity”: 0.264 z-score.
`TTAGTTATCGGTCTCGGTTAGTGCTAG` — result for “fitted relative affinity”: 3.37 z-score.
`TCCATTTTCTGAATGCTACTGTGCTAG` — result for “fitted relative affinity”: 0.505 z-score.
For `TGAGGACTGGGGACTGGGTTAGTGCTA`, “fitted relative affinity” read -0.588 z-score.
For `TTAAGTCTCGGTTTCGGTTAGTGCTAG`, “fitted relative affinity” read 11.3 z-score.
`TCAGGTATCGGGTTTCGGTTAGTGCTA` — result for “fitted relative affinity”: 7.14 z-score.
Under “fitted relative affinity”, `TTAGGACTGTGTATCGGTTAGTGCTAG` is recorded as 1.43 z-score.
Under “fitted relative affinity”, `TCCGTATGGATGGCCAATTGGTGCTAG` is recorded as -0.683 z-score.
`ACTCCTGTACATCTATGTAGGTGCTAG` — result for “fitted relative affinity”: 0.156 z-score.
`TTAGCTATCGGGTTTCGGTTAGTGCTA` — result for “fitted relative affinity”: 5.93 z-score.
`CTAGATATCGGGTATCGATTAGTGCTA` — result for “fitted relative affinity”: 3.01 z-score.
For `TCATTTCTACGTCTGATACTGTGCTAG`, “fitted relative affinity” read 0.525 z-score.
Under “fitted relative affinity”, `GAGGGACTGGGGACTGGGGACGTGCTA` is recorded as -0.375 z-score.
For `GACGGTCTGGACACTGGGGACGTGCTA`, “fitted relative affinity” read -0.597 z-score.
`TTCCTTTCTCTTCCGTTAGCGTGCTAG`: “fitted relative affinity” 2.71 z-score.

Mixed results
For `PhoQ, residues 284 288 289 292 302 303 GANMMA`, the fold induction was 6.4 (PhoP, residues 12 14 15 18 19 VQALL (Escherichia coli, UniProt P23836); Sort-seq, refers to: YFP reporter; E. coli; PhoQ-PhoP variant library, with: 10 µM Mg2+; baseline: high Mg2+ state, higher = stronger signaling).

Excerpt of the above (series 4):
Under “fitted relative affinity”, `TTAGGACTGTGTATCGGTTAGTGCTAG` is recorded as 1.43 z-score.
`TCAGGTATCGGGTTTCGGTTAGTGCTA` — result for “fitted relative affinity”: 7.14 z-score.
Under “fitted relative affinity”, `GACGGTCTCGGTCTCGAGACGTGCTAG` is recorded as 4.14 z-score.
For `TCATTTCTACGTCTGATACTGTGCTAG`, “fitted relative affinity” read 0.525 z-score.
`TTAGCTATCGGGTTTCGGTTAGTGCTA` — result for “fitted relative affinity”: 5.93 z-score.
`AGATTTATCAAATGTGGGATTGTGCTA`: “fitted relative affinity” -0.735 z-score.
For `GACGGTTCCCTTTTCTTGACGTGCTAG`, “fitted relative affinity” read 1.02 z-score.
`TCCATTTTCTGAATGCTACTGTGCTAG` — result for “fitted relative affinity”: 0.505 z-score.
